Published values of several laboratories.

O=c1[nH]c(=O)c(Cc2cccc(C(F)(F)F)c2)c([C@H]2CC[C@H](c3ccccc3)CC2)[nH]1 — AUC(0-tau) (human, plasma; oral, 150 mg once daily, day 7, geometric mean): 1730 ng·h/mL
Cc1cc(C)c2c(c1)[C@@H](N(Cc1cc(C(F)(F)F)cc(C(F)(F)F)c1)c1nnn(C)n1)CCCN2C[C@H]1CC[C@H](C(=O)O)CC1 — AUC(0-tau) (healthy humans, plasma; oral, 130 mg once daily, day 22, geometric mean, with: gemfibrozil 600 mg twice daily): 11400 ng·h/mL
CC(C)(Sc1ccncc1-c1ccc(C#N)c2ccccc12)C(=O)O — AUC(0-tau) (human, plasma; oral, dose not given, day 7, geometric mean, with: febuxostat): 141 ng·h/mL
Nc1ccn([C@@H]2O[C@H](CO)[C@@H](O)C2(F)F)c(=O)n1 — AUC(0-tau) (human, plasma; intravenous, 600 mg/m2, cycle 1 day 1, with: lonafarnib 200 mg twice daily): 4140 ng·h/mL
C[C@@H]1CCC[C@H](n2cnc(-c3cc(Cl)ccc3-n3cc(Cl)nn3)cc2=O)c2cc(ccn2)-c2c(cnn2C(F)F)NC1=O — AUC(0-tau) (human, fasted; 35 mg twice daily, day 1): 1360 ng·h/mL
COc1ccc(-c2c(Nc3ccccn3)[nH]c3c(C4=CCCCC4)c(-c4ccccc4)nn3c2=O)cc1 — AUC(0-tau) (human, plasma; oral, 400 mg once daily, cycle 1 day 15, multiple dosing, geometric mean, tau 24 h): 57300 ng·h/mL
COCCCCn1c(C(=O)N(CC(C)C)[C@@H]2CNC[C@H](C(=O)N3CCOCC3)C2)nc2ccccc21 — AUC(0-tau) (non-elderly human, plasma; oral, 160 mg once daily, day 1): 8010 ng·h/mL
C=C(C)[C@@H]1CC[C@]2(NCCN3CCS(=O)(=O)CC3)CC[C@]3(C)[C@H](CC[C@@H]4[C@@]5(C)CC=C(C6=CC[C@@](CF)(C(=O)O)CC6)C(C)(C)[C@@H]5CC[C@]43C)[C@@H]12 — AUC(0-tau) (human, HIV-1 treatment-naive, plasma; oral, 10 mg once daily, day 8): 910 ng·h/mL
CNC(=O)c1cc(Oc2ccc(NC(=O)Nc3ccc(Cl)c(C(F)(F)F)c3)cc2)ccn1 — AUC(0-tau) (human patients, plasma; oral, dose not given, with: tanespimycin): 85 µM·h
C=C(C)[C@@H]1CC[C@]2(NCCN3CCS(=O)(=O)CC3)CC[C@]3(C)[C@H](CC[C@@H]4[C@@]5(C)CC=C(C6=CC[C@@](CF)(C(=O)O)CC6)C(C)(C)[C@@H]5CC[C@]43C)[C@@H]12 — AUC(0-tau) (human, plasma; oral, 200 mg once daily, day 14): 21500 ng·h/mL

For quick reference, copied from above:
O=c1[nH]c(=O)c(Cc2cccc(C(F)(F)F)c2)c([C@H]2CC[C@H](c3ccccc3)CC2)[nH]1 — AUC(0-tau) (human, plasma; oral, 150 mg once daily, day 7, geometric mean): 1730 ng·h/mL
Cc1cc(C)c2c(c1)[C@@H](N(Cc1cc(C(F)(F)F)cc(C(F)(F)F)c1)c1nnn(C)n1)CCCN2C[C@H]1CC[C@H](C(=O)O)CC1 — AUC(0-tau) (healthy humans, plasma; oral, 130 mg once daily, day 22, geometric mean, with: gemfibrozil 600 mg twice daily): 11400 ng·h/mL
